Assay results from different studies.
Lines come from different studies, so protocols differ. “And” joins repeats or separate records; there may be more than shown. ± gives the spread as reported.

`CC[C@H](C)[C@H](NC(=O)[C@H](CC(C)C)NC(=O)[C@H](CCCNC(=N)N)NC(=O)[C@@H](N)CCCNC(=N)N)C(=O)N[C@@H](CCCNC(=N)N)C(=O)N[C@@H](CCCCN)C(=O)N[C@@H](CC(C)C)C(=O)N[C@@H](CCCCN)C(=O)NCC(=O)N[C@@H](CC(C)C)C(=O)N[C@@H](CCCCN)C(=O)N[C@@H](CCCCN)C(=O)N[C@@H](Cc1ccc(O)cc1)C(=O)N[C@@H](CC(C)C)C(=O)N[C@@H](Cc1ccc(O)cc1)C(=O)N[C@@H](Cc1ccccc1)C(=O)N[C@@H](CCCCN)C(=O)N[C@@H](CC(C)C)C(=O)N[C@@H](CCC(N)=O)C(=O)N[C@@H](CC(C)C)C(=O)N[C@@H](CC(C)C)C(=O)N[C@@H](CCCCN)C(=O)N[C@@H](CCCCN)C(N)=O`: “time to near-complete degradation” 18 to 20 h (trypsin; substrate, HPLC; 150 µM, pH 7.4, 37 °C, with: trypsin 0.06 µg/mL).
`CC(C)N(N=O)C(C)C`: “revertant colonies per plate” 160 ± 12 (Escherichia coli; mutagenicity, Ames plate incorporation; WP2 uvrA pKM101; 1500 µg/plate, without S9, methanol).
The viability of `COc1ccc(-n2nc(C(C)=O)s/c2=N\N=C(/C)c2ccc(NC(C)=O)cc2)cc1` is reported as 22.9% (WI-38; 0.156 µM, 24 (unit not given)).
`Nc1c(C(=O)Nc2nccs2)sc2nc(-c3ccccc3)cc(C(F)(F)F)c12` gave a viability of 28 ± 3% (MDA-MB-231; MTT; 100 µM, 72 h).
`CC(C)C[C@H](NC(=O)[C@H](Cc1c[nH]cn1)NC(=O)[C@H](Cc1c[nH]cn1)NC(=O)[C@H](Cc1ccc(O)cc1)NC(=O)[C@@H](N)CS)C(=O)N[C@H](C(=O)N[C@@H](CC(C)C)C(=O)N[C@H](C(=O)N[C@H](C(=O)NCC(=O)NCC(=O)N[C@@H](CO)C(=O)O)C(C)C)[C@@H](C)O)C(C)C` has a body weight of 21.1 g and 21.7 g (Epstein-Barr virus; B-NDG humanized mouse, EBV-infected; 20 mg/kg, day 0).
`CC[C@H](C)[C@H](NC(=O)[C@@H]1CCCN1C(=O)[C@H](CC(N)=O)NC(=O)[C@H](CC(C)C)NC(=O)[C@@H](N)CCCNC(=N)N)C(=O)NCC(=O)N[C@@H](Cc1ccc(O)cc1)C(=O)N[C@@H](CO)C(=O)N[C@@H](Cc1ccc(O)cc1)C(=O)O` gave an IC50 of 55.4 µM (HLA class I histocompatibility antigen, A alpha chain, allele A*24:02 (Homo sapiens, UniProt P04439); binding).
`Cc1c(Cl)c(=O)oc2cc(OCCCC[Se]C#N)ccc12` gave a developmental defects of 5.72% (Caenorhabditis elegans; N2 Bristol, NGM with E. coli OP50; 100 µM, 3 days).
`CNC(=O)c1c(N(C)N=O)ncn1C` — result for “revertant colonies per plate”: 87.3 ± 12 (Escherichia coli; plate incorporation; WP2uvrA pKM101, water; 500 µg/plate, without S9).
`C#Cc1ccc2c(c1)C(c1ccccn1)=NCc1c(-c3cnco3)ncn1-2.Cl` has a solubility of 1160 µg/mL (chloroform; 24 h, 25 °C, thermodynamic equilibrium).
`COc1ncnn2ccc(-c3cnc4nc(C)n(Cc5nnc([C@@H](C)F)o5)c4c3)c12` — result for “incidence of grade 1 nausea”: 0% (human patients; oral, dose not given).
The recovery of `CC(C)CC(=O)OC[C@H]1O[C@@](C#N)(c2ccc3c(N)ncnn23)[C@H](O)[C@@H]1O` is reported as 101% (Caco-2; bidirectional permeability; 90 µM, 120 min; basolateral to apical).
Under “patients with adverse event”, `CN1CC[C@@H](c2c(O)cc(O)c3c(=O)cc(-c4ccc(C(F)(F)F)cc4Cl)oc23)[C@@H]1CO` is recorded as 0% (refers to: Syncope; relapsed B-cell malignancies; oral, 100 mg, grade 3-4, intermittent dosing).
`O=C1c2c(O)c(=O)ccn2N([C@@H]2c3ccccc3SCc3c2ccc(F)c3F)[C@@H]2COCCN12` has a plasma concentration of 9.03 ng/mL (BALB/c mouse, plasma; oral, 15 mg/kg baloxavir marboxil every 12 h, 24 h).
For `CCC1(c2ccccc2)C(=O)NC(=O)NC1=O`, “relative enzyme activity” read 11.9 (CYP2B6 human; inducer; hepatocytes lot LTG; 750 µM; baseline: DMSO).
`CO[C@H]1C[C@@H]2CC[C@@H](C)[C@@](O)(O2)C(=O)C(=O)N2CCCC[C@H]2C(=O)O[C@H]([C@H](C)C[C@@H]2CC[C@@H](OC(=O)NCCOCCOCCOCCOCCOCCOCCOCCOCCC(=O)N3CCc4cc(Cn5nc(-c6ccc7oc(N)nc7c6)c6c(N)ncnc65)ccc4C3)[C@H](OC)C2)C[C@@H](O)[C@H](C)/C=C(\C)[C@@H](O)[C@@H](OC)C(=O)[C@H](C)C[C@H](C)/C=C/C=C/C=C/1C` has a fatigue incidence of 50% (patients with advanced solid tumours; intravenous, 16 mg weekly, any grade).
Under “revertant colonies per plate”, `COCCN(CCOC)N=O` is recorded as 128 ± 10 (Escherichia coli; mutagenicity, Ames plate incorporation; WP2 uvrA pKM101; 50 µg/plate, 3 d, without S9, methanol).
Under “incidence of adverse event”, `COc1cc2c(Oc3ccc4[nH]c(C)cc4c3F)ccnc2cc1OCC1(N)CC1` is recorded as 13.3% (refers to: grade 1 or 2 hand-foot syndrome; paediatric high-risk refractory sarcoma; 8 mg).
For `Oc1ccc(C2(c3ccc(O)cc3)c3ccccc3-c3ccccc32)cc1`, “early apoptotic cells” read 13.8 ± 3.34% (HepG2 spheroids, dissociated; annexin V-FITC/PI flow cytometry; 0.1 µM, 24 h).
`Cc1ncc(OC[C@@]2(c3cccc(F)c3)C[C@H]2C(=O)Nc2ccc(F)cn2)c(C)n1` gave a Papp of 32 ×10⁻⁶ cm/s and 37.6 ×10⁻⁶ cm/s (MDCK; permeability basolateral to apical; 1 µM, 90 min, pH 7.4 apical to 7.4 basolateral).
`CCN(CC)C(=O)[C@@H]1C=C2c3cccc4[nH]cc(c34)C[C@H]2N(C)C1` — result for “List of Complaints score”: 0 (refers to: tendency to cry; healthy volunteers; dose not given, 12 to 24 h; baseline: placebo, direction not given).
`CC(C)C[C@H](NC(=O)[C@H](CCC(N)=O)NC(=O)[C@H](CCCNC(=N)N)NC(=O)[C@H](CO)NC(=O)[C@H](Cc1ccc(O)cc1)NC(=O)[C@H](CC(C)C)NC(=O)[C@@H](N)CCCNC(=N)N)C(=O)N[C@@H](Cc1c[nH]cn1)C(=O)N[C@@H](Cc1ccccc1)C(=O)O` has an IC50 of 0.539 µM (HLA class I histocompatibility antigen, A alpha chain, allele A*02:01 (Homo sapiens, UniProt P04439); binding).
`OC(CCN1CC=C(c2ccc(F)cc2)CC1)c1ccc(F)c2ccccc12` (stereo not shown) gave an induction factor of 1.4 (Salmonella typhimurium; genotoxicity, SOS/umu test; TA1535/pSK1002; 0.031 mg/mL, 4 h, without S9, full range).
`C[C@]1(CO)Cc2ncn(-c3ccc(C#N)c(Cl)c3)c2C(=O)O1` — result for “drug-related Dizziness incidence”: 8.3% (Chinese subjects; dose not given, all doses total).
For `CN(N=O)c1ccc(F)cc1`, “revertant colonies per plate” read 114 ± 15 (Escherichia coli; mutagenicity, Ames plate incorporation; WP2 uvrA pKM101; 150 µg/plate, 3 d, without S9, methanol).
`Cc1cc(C(=O)NC(C)(C)COc2cccc3c2C(N)=NS(=O)(=O)N3)cc(C)n1` gave a revertant ratio of 0.7 (Salmonella typhimurium; Ames test, confirmatory; TA1535; 333 µg/plate, with: rat liver S9; baseline: solvent control).

For quick reference, copied from above:
`CC(C)C[C@H](NC(=O)[C@H](CCC(N)=O)NC(=O)[C@H](CCCNC(=N)N)NC(=O)[C@H](CO)NC(=O)[C@H](Cc1ccc(O)cc1)NC(=O)[C@H](CC(C)C)NC(=O)[C@@H](N)CCCNC(=N)N)C(=O)N[C@@H](Cc1c[nH]cn1)C(=O)N[C@@H](Cc1ccccc1)C(=O)O` has an IC50 of 0.539 µM (HLA class I histocompatibility antigen, A alpha chain, allele A*02:01 (Homo sapiens, UniProt P04439); binding).
`CC(C)N(N=O)C(C)C`: “revertant colonies per plate” 160 ± 12 (Escherichia coli; mutagenicity, Ames plate incorporation; WP2 uvrA pKM101; 1500 µg/plate, without S9, methanol).
`Cc1c(Cl)c(=O)oc2cc(OCCCC[Se]C#N)ccc12` gave a developmental defects of 5.72% (Caenorhabditis elegans; N2 Bristol, NGM with E. coli OP50; 100 µM, 3 days).
Under “revertant colonies per plate”, `COCCN(CCOC)N=O` is recorded as 128 ± 10 (Escherichia coli; mutagenicity, Ames plate incorporation; WP2 uvrA pKM101; 50 µg/plate, 3 d, without S9, methanol).
